Experimental data pooled from the literature.
Lines come from different studies, so protocols differ. Several values in a cell are separate wells, animals, samples, runs or records. Numbers after ± are the reported error.

The tumour volume of `N.N.[Cl][Pt][Cl]` is reported as 152 mm3 (SAS xenograft, KSN/Slc nude mice; dose not given, day 4, group mean).
`C[C@H]1O[C@@H](O[C@H]2CC[C@@]3(C)[C@@H](CC[C@]4(C)[C@@H]3C=C[C@]35OC[C@@]6(CCC(C)(C)C[C@H]63)[C@@H](O)C[C@]54C)[C@]2(C)CO)[C@H](O)[C@@H](O[C@@H]2O[C@H](CO)[C@@H](O)[C@H](O)[C@H]2O)[C@H]1O` — result for “hepatic total cholesterol”: 0.0936 mmol/g protein and 0.0837 mmol/g protein and 0.0719 mmol/g protein and 0.0998 mmol/g protein and 0.0776 mmol/g protein and 0.0425 mmol/g protein (mouse, pair-fed, AAV8-TBG-Null, liver; dose not given, high dose).
`CN1CCN(S(=O)(=O)c2cc([N+](=O)[O-])ccc2N(CCOS(C)(=O)=O)CCOS(C)(=O)=O)CC1` has an event-free survival of 40.3 days (NSG mice, sample BI PDX; intraperitoneal, 25 mg/kg weekly x3).
For `O=C(O)CNC(=O)c1cc2ccccc2n1Cc1ccc(Br)c2ccccc12`, “serum uric acid decrease” read 28.7% (mouse, acute hyperuricaemia model; oral, 2 mg/kg; reference: model control).
With `C[C@H](NC(=O)c1c(C(F)F)nn(C)c1Oc1cccc(C(F)(F)F)c1)c1ccc(C(=O)O)cc1` the deaths was 0% (human, advanced tumours; 500 mg).
`COc1ccc(-c2[nH]c3c(OC)c(OC)ccc3c2C(=O)c2cc(OC)c(OC)c(OC)c2)cc1OP(=O)([O-])[O-].[Na+].[Na+]`: bioluminescence signal “decreased” (outcome: decreased; mouse, BALB/c, orthotopic RENCA-luc, kidney tumour; dose not given).
With `O=C(O)/C=C/C(=O)O.Oc1cccc2[nH]cc(CCNCc3ccccc3)c12` the distance travelled was 2900 ± 371 cm (C57BL/6J mice; subcutaneous, 0.1 mg/kg, 30 min).
`Cc1cn(-c2cc(NC(=O)c3ccc(C)c(Nc4nccc(-c5cccnc5)n4)c3)cc(C(F)(F)F)c2)cn1`: “ADAS-Cog maze errors change” 0 (human patients; dose not given, 6 months vs baseline, unit not given; reference: placebo).
For `CC[C@H](C)[C@@H]1NC(=O)[C@@H]2CCCN2C(=O)[C@H](CC(C)C)NC(=O)[C@H](CC(C)C)NC(=O)CNC(=O)[C@@H](NC(=O)[C@@H](NC(=O)[C@H](CC(=O)O)NC(=O)CNC(=O)[C@@H](NC(=O)[C@H](C)NC(=O)CNC(=O)[C@H](CCCCN)NC(=O)[C@H](CC(C)C)NC(=O)[C@H](CC(C)C)NC(=O)[C@H](CCCCN)NC(=O)CNC(=O)[C@@H](NC(=O)[C@@H](N)CC(C)C)C(C)C)C(C)C)C(C)C)CSSC[C@@H](C(=O)O)NC1=O`, “log2 fold change” read -2.78 (RNA-seq, item: Il11; mouse, traumatic brain injury model, frontal cortex and hippocampus; dose not given; reference: TBI alone).
With `CCCCC1(CCCC)CN(c2ccccc2)c2cc(SC)c(OCC(=O)N[C@@H](C(=O)NCC(=O)O)c3ccccc3)cc2S(=O)(=O)C1` the serum HDL-C was 48.8 mg/dL (item: HDL cholesterol; human, serum; 10 mg once daily, day 7).
`CN1CCN(C(C(=O)NCCc2ccc(F)cc2)c2ccc(C#N)cc2)CC1` (stereo not shown) — result for GLAST expression: “no effect” (rat, prefrontal cortex; ip, 100 mg/kg twice daily, 7 days, with: clavulanic acid 10 mg/kg; reference: vehicle).
With `CCCCCN1C[C@H](O)[C@@H](O)[C@H](O)[C@@H]1CO` the median survival was 156 days (Hexb-/- mice, female; 300 mg/kg/day).
The tumour volume of `c1ccc2c(c1)Nc1ccccc1S2` is reported as 736 mm³ (CT26 tumour-bearing mice; intraperitoneal, 100 mg/kg equivalents daily, day 6).
`CC1(C)C(=CC=C2CCCC(C=CC3=[N+](CCCCS(=O)(=O)[O-])c4ccc(S(=O)(=O)O)cc4C3(C)C)=C2Oc2ccc(S(=O)(=O)O)cc2)N(CCCCCC(=O)NCCCC[C@H](NC(=O)[C@H](CO)NC(=O)CNC(=O)CNC(=O)CNC(=O)[C@H](Cc2ccccc2)NC(=O)[C@H](CCCNC(=N)N)NC(=O)[C@@H]2CCCN2C(=O)[C@H](CC(N)=O)NC(=O)[C@@H]2CCCN2C(=O)[C@H](CO)NC(=O)[C@@H](N)CCCCN)C(N)=O)c2ccc(S(=O)(=O)O)cc21`: “tumour to background ratio improvement” 2.2 fold (photoacoustic endoscopy; CPC;Apc mice, colonic adenoma; reference: ICG).
With `[131I-].[Na+]` the excellent response was 61.6% (ATA response criteria; human, papillary thyroid cancer, nodal metastases; 3700 MBq).
With `CC(C)[C@@H](CS(=O)(=O)C(C)C)N1C(=O)[C@@](C)(CC(=O)O)C[C@H](c2cccc(Cl)c2)[C@H]1c1ccc(Cl)cc1` the median survival was 34 days (mouse, orthotopic PDX; 100 mg/kg, 5 days).

Repeated from above:
With `CCCCCN1C[C@H](O)[C@@H](O)[C@H](O)[C@@H]1CO` the median survival was 156 days (Hexb-/- mice, female; 300 mg/kg/day).
With `CC(C)[C@@H](CS(=O)(=O)C(C)C)N1C(=O)[C@@](C)(CC(=O)O)C[C@H](c2cccc(Cl)c2)[C@H]1c1ccc(Cl)cc1` the median survival was 34 days (mouse, orthotopic PDX; 100 mg/kg, 5 days).
